Measurements gathered from unrelated publications.
Protocols differ between the studies behind these lines.

| Compound | organism | test | test system | conditions | MIC |
| --- | --- | --- | --- | --- | --- |
| CN[C@H](CC(C)C)C(=O)N[C@H]1C(=O)N[C@@H](CC(N)=O)C(=O)N[C@H]2C(=O)N[C@H]3C(=O)N[C@H](C(=O)N[C@H](C(=O)O)c4cc(O)cc(O)c4-c4cc3ccc4O)[C@H](O)c3ccc(c(Cl)c3)Oc3cc2cc(c3O[C@@H]2O[C@H](CO)[C@@H](O)[C@H](O)[C@H]2O[C@H]2C[C@](C)(N)[C@H](O)[C@H](C)O2)Oc2ccc(cc2Cl)[C@H]1O | Streptococcus pyogenes |  | ATCC 19615 | 1 strain | 0.25 µg/mL |
| C[C@@H](O)[C@H]1C(=O)N2C(C(=O)O)=C(S[C@@H]3CN[C@H](C(=O)N(C)C)C3)[C@H](C)[C@H]12 | Enterobacter cloacae |  | BNCC 185928 |  | 0.125 µg/mL |
| Cc1ccc(CCC(=O)Nc2nnc(S(N)(=O)=O)s2)cc1 | Bacteroides fragilis |  | HM-711 |  | > 784 µM |
| CCCCCCCCCC(=O)N[C@@H](Cc1c[nH]c2ccccc12)C(=O)N[C@H](CC(N)=O)C(=O)N[C@@H](CC(=O)O)C(=O)N[C@@H]1C(=O)NCC(=O)N[C@@H](CCCN)C(=O)N[C@@H](CC(=O)O)C(=O)N[C@H](C)C(=O)N[C@@H](CC(=O)O)C(=O)NCC(=O)N[C@H](CO)C(=O)N[C@@H]([C@H](C)CC(=O)O)C(=O)N[C@@H](CC(=O)c2ccccc2N)C(=O)O[C@@H]1C | Staphylococcus aureus |  | SH1000 | together with: phosphatidylethanolamine, molar ratio 2 | 1 µg/mL |
| N=C(N)c1ccc(OCCCCCOc2ccc(C(=N)N)cc2)cc1 | Escherichia coli |  | BW25113 | compound alone, novobiocin checkerboard | 200 µg/mL |
| CC1(C)SC2C(NC(=O)C(NC(=O)C3=C(O)C(Cc4ccc([N+](=O)[O-])cc4)NC3=O)c3ccccc3)C(=O)N2C1C(=O)O (centres unmarked) | Escherichia coli | broth microdilution | BW25113 wild type | 18 h | 50 µg/mL |
| N=C(N)c1ccc(OCc2ccc(Br)cc2COc2ccc(C(=N)N)cc2)cc1 | Escherichia coli |  | 552100 | in combination, checkerboard, together with: rifampicin | 6.25 µg/mL |
| CC1(C)S[C@@H]2[C@H](NC(=O)[C@H](N)c3ccccc3)C(=O)N2[C@H]1C(=O)O | Bordetella bronchiseptica | broth microdilution | ATCC 10580 |  | 86.2 µM |
| N=C(N)c1ccc(OCc2ccccc2COc2ccc(C(=N)N)cc2)cc1 | Escherichia coli |  | BW25113 | in combination, lowest-FICI combination, together with: vancomycin | > 200 µg/mL |
| CC1(C)S[C@@H]2[C@H](NC(=O)[C@H](N)c3ccc(O)cc3)C(=O)N2[C@H]1C(=O)O | Enterobacter cloacae |  | BNCC 185928 |  | 4 µg/mL |
| C[C@H]1COc2c(N3CCN(C)CC3)c(F)cc3c(=O)c(C(=O)O)cn1c23 | Enterobacter cloacae | agar dilution | ATCC 43560 susceptible |  | ≤ 0.03 µg/mL |
| CC1(C)S[C@@H]2[C@H](NC(=O)[C@H](N)c3ccccc3)C(=O)N2[C@H]1C(=O)O | Enterobacter cloacae |  | BNCC 185928 |  | 64 µg/mL |
| CN[C@H](CC(C)C)C(=O)N[C@H]1C(=O)N[C@@H](CC(N)=O)C(=O)N[C@H]2C(=O)N[C@H]3C(=O)N[C@H](C(=O)N[C@H](C(=O)O)c4cc(O)cc(O)c4-c4cc3ccc4O)[C@H](O)c3ccc(c(Cl)c3)Oc3cc2cc(c3O[C@@H]2O[C@H](CO)[C@@H](O)[C@H](O)[C@H]2O[C@H]2C[C@](C)(N)[C@H](O)[C@H](C)O2)Oc2ccc(cc2Cl)[C@H]1O | Bordetella bronchiseptica | broth microdilution | ATCC 10580 |  | 2.69 µM |
| CC(C)C[C@@H]1NC(=O)[C@@H](Cc2ccccc2)NC(=O)[C@H](CCN)NC(=O)[C@@H](NC(=O)[C@H](CCN)NC(=O)[C@@H](N)[C@@H](C)O)CCNC(=O)[C@H]([C@@H](C)O)NC(=O)[C@H](CCN)NC(=O)[C@H](CCN)NC1=O | Escherichia coli | checkerboard | BW25113 | compound alone | > 200 µg/mL |
| C[C@@H](O)[C@H]1C(=O)N2C(C(=O)O)=C(S[C@@H]3CN[C@H](C(=O)N(C)C)C3)[C@H](C)[C@H]12 | Morganella morganii | broth microdilution | clinical isolate RKI 659/13 |  | ≤ 0.5 µg/mL |
| CN[C@H](CC(C)C)C(=O)N[C@H]1C(=O)N[C@@H](CC(N)=O)C(=O)N[C@H]2C(=O)N[C@H]3C(=O)N[C@H](C(=O)N[C@H](C(=O)O)c4cc(O)cc(O)c4-c4cc3ccc4O)[C@H](O)c3ccc(c(Cl)c3)Oc3cc2cc(c3O[C@@H]2O[C@H](CO)[C@@H](O)[C@H](O)[C@H]2O[C@H]2C[C@](C)(N)[C@H](O)[C@H](C)O2)Oc2ccc(cc2Cl)[C@H]1O | Listeria ivanovii |  | BAA-139 |  | 0.5 µM |
| CC[C@H](C)[C@H](NC(=O)[C@H](CCCCN)NC(=O)[C@H](CCC(=O)O)NC(=O)[C@H](CCCCN)NC(=O)[C@H](CO)NC(=O)[C@H](CCCCN)NC(=O)[C@H](CCCNC(=N)N)NC(=O)[C@H](Cc1ccccc1)NC(=O)[C@H](Cc1ccccc1)NC(=O)[C@H](CC(=O)O)NC(=O)CNC(=O)[C@H](CC(C)C)NC(=O)[C@@H](N)CC(C)C)C(=O)NCC(=O)N[C@@H](CCCCN)C(=O)N[C@@H](CCC(=O)O)C(=O)N[C@@H](Cc1ccccc1)C(=O)N[C@@H](CCCCN)C(=O)N[C@@H](CCCNC(=N)N)C(=O)N[C@H](C(=O)N[C@H](C(=O)N[C@@H](CCC(N)=O)C(=O)N[C@@H](CCCNC(=N)N)C(=O)N[C@H](C(=O)N[C@@H](CCCCN)C(=O)N[C@@H](CC(=O)O)C(=O)N[C@@H](Cc1ccccc1)C(=O)N[C@@H](CC(C)C)C(=O)N[C@@H](CCCNC(=N)N)C(=O)N[C@@H](CC(N)=O)C(=O)N[C@@H](CC(C)C)C(=O)N[C@H](C(=O)N1CCC[C@H]1C(=O)N[C@@H](CCCNC(=N)N)C(=O)N[C@H](C(=O)N[C@@H](CCC(=O)O)C(=O)N[C@@H](CO)C(=O)O)[C@@H](C)O)C(C)C)[C@@H](C)CC)C(C)C)[C@@H](C)CC | Bordetella bronchiseptica | broth microdilution | ATCC 10580 | 16 h, 37 °C, cation-adjusted Mueller-Hinton broth | 128 µg/mL |
| CO[C@H]1/C=C/O[C@@]2(C)Oc3c(C)c(O)c4c(c3C2=O)C2=NC3(CCN(CC(C)C)CC3)NC2=C(NC(=O)/C(C)=C\C=C\[C@H](C)[C@H](O)[C@@H](C)[C@@H](O)[C@@H](C)[C@H](OC(C)=O)[C@@H]1C)C4=O | Mycobacteroides abscessus |  | ATCC 19977 | single-strain MIC | 2030 µg/mL |
| Cc1cc(-c2cn[nH]c2-c2cccc(OCc3cccc(C#N)c3)c2)cc(C)n1 | Enterobacter cloacae | broth microdilution | ATCC 29893 |  | 4 µg/mL |
| Cc1c(CN(C)C(=O)/C=C/c2cnc3c(c2)CC(NC(=O)OC(C)(C)C)C(=O)N3)oc2ccccc12 (centres unmarked) | Enterobacter cloacae | broth microdilution | ATCC 29893 |  | > 32 µg/mL |
| C[C@@H](O)[C@H]1C(=O)N2C(C(=O)O)=C(SCCN=CN)C[C@H]12 | Enterobacter cloacae |  | BNCC 185928 |  | 2 µg/mL |
| CC1(C)SC2C(NC(=O)C(NC(=O)C3=C(O)CN(c4ccccc4)C3=O)c3ccccc3)C(=O)N2C1C(=O)O (centres unmarked) | Escherichia coli | broth microdilution | ATCC 25922 wild type | together with: clavulanic acid 6 µg/mL | 12.5 µg/mL |
| CC(=O)NC[C@H]1CN(c2ccc(N3CCOCC3)c(F)c2)C(=O)O1 | Bacteroides fragilis |  | HM-711 |  | < 2.96 µM |

Excerpt of the above:
| Compound | organism | test | test system | conditions | MIC |
| --- | --- | --- | --- | --- | --- |
| CCCCCCCCCC(=O)N[C@@H](Cc1c[nH]c2ccccc12)C(=O)N[C@H](CC(N)=O)C(=O)N[C@@H](CC(=O)O)C(=O)N[C@@H]1C(=O)NCC(=O)N[C@@H](CCCN)C(=O)N[C@@H](CC(=O)O)C(=O)N[C@H](C)C(=O)N[C@@H](CC(=O)O)C(=O)NCC(=O)N[C@H](CO)C(=O)N[C@@H]([C@H](C)CC(=O)O)C(=O)N[C@@H](CC(=O)c2ccccc2N)C(=O)O[C@@H]1C | Staphylococcus aureus |  | SH1000 | together with: phosphatidylethanolamine, molar ratio 2 | 1 µg/mL |
